Measurements from different studies.
Numbered parts are unrelated; each lists some results of a single study.

Study 1
Target: POU, POU domain (Salpingoeca helianthica)
Technique: Spec-seq
Form: double-stranded DNA, one strand shown
Matrix: in vitro
Concentration: not given
Setting: whole probe, mean of replicates
Relative to: not given
Reading: lower = stronger binding
Constant ends, left off below: GAGTCGTCTCGTCAGCACA … CCGTAGAGCACTCAGGTC
Residues (chain): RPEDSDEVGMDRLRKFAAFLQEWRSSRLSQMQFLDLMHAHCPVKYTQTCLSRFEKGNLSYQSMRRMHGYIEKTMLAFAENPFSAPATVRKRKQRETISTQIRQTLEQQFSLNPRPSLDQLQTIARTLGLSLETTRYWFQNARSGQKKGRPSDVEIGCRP
`TGCATTA` — result for “relative binding energy”: 0.879 ln ratio.
For `CCATAAT`, “relative binding energy” read 0.699 ln ratio.
`TAATTAT`: “relative binding energy” -1.5 ln ratio.
`TATGCAT`: “relative binding energy” 0.95 ln ratio.
`TGCGTAT`: “relative binding energy” 1.17 ln ratio.
Under “relative binding energy”, `TTAACAT` is recorded as 0.0457 ln ratio.

Study 2
Target: Histone acetyltransferase KAT6A, winged helix 2, GST fusion (KAT6A, Homo sapiens, UniProt Q92794, residues 85-181)
Technique: protein binding microarray
Form: double-stranded DNA, one strand shown
Matrix: in vitro
Concentration: not given
Setting: 8-mer, flanks averaged, mean of 2 arrays, mostly near background
Relative to: not given
Reading: higher = stronger binding
Construct (chain): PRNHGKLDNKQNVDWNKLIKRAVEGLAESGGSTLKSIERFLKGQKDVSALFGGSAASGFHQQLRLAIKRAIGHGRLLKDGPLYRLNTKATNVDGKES
`CTTGCTTC` has an E-score of 0.0723.
The E-score of `ACTCGTTG` is reported as -0.182.
For `ACGAGCGG`, the E-score was -0.0138.
The E-score of `ATGCAGAA` is reported as 0.0895.
`CCGGTCAG` gave an E-score of 0.0446.
With `ACCCTTAA` the E-score was 0.0218.
The E-score of `CAATTGCG` is reported as 0.00541.

Study 3
Target: RNA binding protein fox-1 homolog 2, RRM domain, GST-SBP tag (RBFOX2, Homo sapiens, UniProt O43251-10, residues 100-194)
Technique: RNA Bind-n-Seq
Form: RNA
Matrix: in vitro
Concentration: 365 nM
Setting: natural RNA segment, single round, ends assumed
Relative to: no-protein control
Reading: higher = stronger binding
Constant ends, left off below: GGGAGUUCUACAGUCCGACGAUC … UGGAAUUCUCGGGUGCCAA
Target sequence (chain): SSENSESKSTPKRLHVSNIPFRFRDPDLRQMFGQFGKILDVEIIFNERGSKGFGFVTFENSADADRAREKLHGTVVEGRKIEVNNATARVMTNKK
`AUGAAUCUUUCAUAUAUAUAUGCAUAUAUAUACAUAUAUUGUAGAGUGUGAAUAUUCUUAUUUAAAGUAUAUUUUUACAUUAUGCAAAUGAACUUUAACAUUUUAGUCCA` — result for “RBNS enrichment (R)”: 0.402.
`GUGGGAGGAGCAUCAAGGGGCCUGUCUCUAGGAGCUGUGUGGUUCUGGGCAGUGGUCUGUUCACCCUGAGUCCCACCCUUUGUUAAAUAACAAACUGCUGAUUCUUAAAA` — result for “RBNS enrichment (R)”: 1.05.
`CUGCCAGCAAUGGUUCCAACUCGGAGGCAGCGCCUCUUGGUCCCCAUUUCUGUAUAGCAGGCGUGUGUGUGUGUGUCGAGGUUUUUUAUUUUUUGCUUAAUCAAACUCCA`: “RBNS enrichment (R)” 0.342.
For `AGCCCCCUCAAGUCCUGGGGUCCCAGCCUGUGCCCCCAGCUUCCUGCCCACCCAGCCCUGAGCAUUCUCACACAGAGAAAGAACAAGCAAGGGCUCCAGGGGGACAGGAU`, “RBNS enrichment (R)” read 0.345.
For `AAUGCUGUCUUUUCUAUGGUGUAGAAUCUUUCUUUCUGAUAAGGAACGUCUCAGGCUUAGAAAUAUAUGAAAUUGCUUUUUGAGAUUUUUGCGUGUGUGUUUGAUAUUUU`, “RBNS enrichment (R)” read 1.4.

Mixed results
The fold induction of `PhoQ, residues 284 288 289 292 302 303 NLCILV` is reported as 10.6 (PhoP, residues 12 14 15 18 19 STWGI (Escherichia coli, UniProt P23836); Sort-seq, item: YFP reporter; E. coli; PhoQ-PhoP variant library, with: 10 µM Mg2+; relative to: high Mg2+ state, higher = stronger signaling).

A few entries again (study 1):
`TATGCAT`: “relative binding energy” 0.95 ln ratio.
`TGCGTAT`: “relative binding energy” 1.17 ln ratio.
